Assay results collected from several papers.
Each numbered part is a random draw from the data of one study; scales do not carry over between parts.

Block 1
Target: Prothrombin, mature alpha-thrombin (F2, Homo sapiens, UniProt P00734)
Technique: aptamer microarray, sandwich
Molecule type: DNA with 2'F-ANA
Sample: in vitro
Concentration: 200 nM
Setting: whole 15-mer aptamer, many near background
Added: Cy3 exosite-II aptamer, 400 nM
Direction: higher = stronger binding
Oligonucleotide: GGTTGGTGTGGTTGG
Modification | mean fluorescence intensity [a.u.]
2'F-ANA at 1 2 3 5 6 7 9 10 11 13 | 45.8
2'F-ANA at 3 7 8 9 12 14 15 | 784
2'F-ANA at 3 5 6 9 10 11 14 | 66.5
2'F-ANA at 1 2 6 10 11 12 15 | 82.4
2'F-ANA at 1 2 3 8 11 12 14 | 97
2'F-ANA at 2 3 4 6 8 9 10 11 13 14 | 138
2'F-ANA at 5 6 7 8 10 15 | 59.3
2'F-ANA at 5 11 12 13 | 143
2'F-ANA at 1 2 3 4 9 10 11 12 | 97.2
2'F-ANA at 3 5 6 7 8 10 11 13 | 56.2
2'F-ANA at 1 5 6 7 8 9 10 12 13 14 | 45.4
2'F-ANA at 3 4 5 11 12 13 14 | 53.2
2'F-ANA at 2 3 7 9 12 14 15 | 433
2'F-ANA at 5 6 8 10 11 14 15 | 53.6
2'F-ANA at 3 4 5 6 8 9 10 12 13 14 | 65.3
2'F-ANA at 1 5 6 7 11 12 | 86.4
2'F-ANA at 1 2 3 7 8 9 10 13 15 | 96.7
2'F-ANA at 2 4 5 8 12 13 15 | 89.9
2'F-ANA at 1 4 6 12 13 | 183
2'F-ANA at 1 5 6 8 9 12 13 | 79.2
2'F-ANA at 4 6 9 10 15 | 72.8
2'F-ANA at 3 4 6 11 | 487
2'F-ANA at 2 3 4 7 8 10 11 12 13 14 | 157
2'F-ANA at 1 2 5 7 8 9 10 | 90
2'F-ANA at 1 2 3 4 5 6 11 | 75.6

Block 2
Target: RING finger protein unkempt homolog, zinc fingers 1-6, SBP tag (UNK, Homo sapiens, UniProt Q9C0B0, residues 30-357)
UniProt Q9C0B0, sequence (30-357, looked up): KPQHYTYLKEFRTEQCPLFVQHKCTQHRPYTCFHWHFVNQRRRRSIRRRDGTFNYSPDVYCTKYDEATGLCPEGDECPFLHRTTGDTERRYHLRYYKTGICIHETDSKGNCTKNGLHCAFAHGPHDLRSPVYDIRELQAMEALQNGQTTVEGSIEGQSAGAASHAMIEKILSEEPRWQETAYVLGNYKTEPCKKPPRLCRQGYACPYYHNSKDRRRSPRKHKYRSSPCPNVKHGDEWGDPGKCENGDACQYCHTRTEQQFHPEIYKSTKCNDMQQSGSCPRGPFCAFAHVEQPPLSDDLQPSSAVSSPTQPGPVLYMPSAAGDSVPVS
Technique: RNA Bind-n-Seq
Molecule type: RNA
Sample: in vitro
Concentration: 100 nM
Setting: RNA with constant flanks, vertebrate orthologous sites, ends assumed
Baseline: input RNA pool
Direction: higher = stronger binding
Oligonucleotide | bound/input enrichment [ratio]
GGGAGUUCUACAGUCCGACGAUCAAUUGACCAAAAACGUUUCCACUGGGUUUUGCCUGUAAGAAAAAAAUGUACCUGAGCACAUAGAGCUUUUUAAUAGCACUAACCAAUGCCUUUUUAGAUGUAUUUUUGAUGUAUAUAUCUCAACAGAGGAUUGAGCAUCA | 0.786
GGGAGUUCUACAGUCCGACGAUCUCCUCUGAACCCCAUAUCUUCUGUUUCAUAGUGCAGAAGUAUUCUUUUCAAUUCUAUUAUUAGUGGACUUGUUUUAAUUUUAGGGAAACUUUCAGUACAGAUACUGUGAGCUUACAUGGACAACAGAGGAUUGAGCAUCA | 2.33
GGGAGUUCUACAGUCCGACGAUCUCCUCAACUUGUUCUAGCUUGUGAUCCUUCAAAGUUGGGUCAUACAUUAGUGCUAGAUACUAGAAAUAUUCACUUUUCCACUGAUCAGAGAGACAGACAUUAAAAACAAAAAUAGAAGAACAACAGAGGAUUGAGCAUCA | 1.98
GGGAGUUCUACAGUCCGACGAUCGGGAGAUACUGAAUAUUAUUAACAUUAUCGUCUUCCUGUACUUUUUUGUGCCCUAAUACCUACUCUACUUUUUAAAUUUUCAGGCUUCAAUGAUCUUUGAAUUGAUCCAGUUUUCACAUUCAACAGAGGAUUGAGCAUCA | 0.63
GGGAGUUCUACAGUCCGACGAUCAUCUGACUGCUGGAUGAAGACUGUUCCAAGUUAUAACCAAACAAAUAGCUCCAUGGACUUUAGAAAUUAUAUGAUGAGAGAUGAGAAUUUGGAACCACUGCCCAAAAACUGGGAAAUGGCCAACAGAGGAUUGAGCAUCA | 0.978
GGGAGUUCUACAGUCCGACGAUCCUGCUGUAUGGGCCCCGCAGAGUUGAGGUCAUGGAAGAGGAAAGUGAACAGUAAUCUCUGUAGUAUUUAUGCUUAGGUGUGAAAUAAAUGUUAUUUGUUGAUCACUUGUAUAAUCCAGAGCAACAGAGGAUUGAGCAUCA | 0.295
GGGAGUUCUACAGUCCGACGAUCCCGAAAGGCCAAAUUCCCUCCUCCCUUCUACUGCUUCUACCAACUGGAAGCACAGAAAACUAGAAUUUCAUUAUUUUGUUUUGAAAAAAUAUAUGUUGAUUUCUUGUAACAUCCAAUAGGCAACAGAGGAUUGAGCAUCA | 0.588
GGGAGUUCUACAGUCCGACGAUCAUCCCAGUUUGUAUGCACAUUAUUCACAUUCCUAUCUGUUGUGUUUGCAGAAAUGACAUUUUACCCUUUUCUAAGGGAUAUCUUUUGAUUUUCAUAUUAUUUGGUUGCAUGGAGUUGCCCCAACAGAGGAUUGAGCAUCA | 0.459
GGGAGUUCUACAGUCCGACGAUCCCAAAGAAUCGACCCCAAAUUUGCCCCAGAGAUUUUGAAAAUGAUAUUGAAAGGAUUAUUUGCGCAUGGAUGCUCAGCGGUCCUCUGAGAUUUCUCAAGCAGUGUGAUUAAGAUCCGUGACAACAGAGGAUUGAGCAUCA | 0.278
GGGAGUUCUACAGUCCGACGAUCAUCACAGUCGCUUUUUACCACCUCAAUGAGGUAGAGUCUCUCUUGGCAUGUGGUUGUUACAAGAGCCAGUCGUACCUGACAAGUCUCUCCACAUUUCAUUUCUUUCACAUUCUUGGUCUUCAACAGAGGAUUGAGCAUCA | 0.483
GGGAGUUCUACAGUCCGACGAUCCUUUUAACCAAUUAUGUCUGUAAAUGUAUAUUGAGAGAACUGAAAUAUUUAUAAACAGAGUGAUUUAUUUAAGGAAAAGCUCAUUCCUCUUUCGUAUGGUGGUCUGUGUUAAUUACAUUUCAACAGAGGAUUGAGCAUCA | 0.764

Block 3
Target: Sal-like protein 4, full length isoform B (SALL4, Homo sapiens, UniProt Q9UJQ4-2, residues 1-616)
Technique: universal PBM
Molecule type: double-stranded DNA, one strand shown
Sample: in vitro
Concentration: not given
Setting: 8-mer, flanks averaged, mean of replicates
Direction: higher = stronger binding
Construct (chain): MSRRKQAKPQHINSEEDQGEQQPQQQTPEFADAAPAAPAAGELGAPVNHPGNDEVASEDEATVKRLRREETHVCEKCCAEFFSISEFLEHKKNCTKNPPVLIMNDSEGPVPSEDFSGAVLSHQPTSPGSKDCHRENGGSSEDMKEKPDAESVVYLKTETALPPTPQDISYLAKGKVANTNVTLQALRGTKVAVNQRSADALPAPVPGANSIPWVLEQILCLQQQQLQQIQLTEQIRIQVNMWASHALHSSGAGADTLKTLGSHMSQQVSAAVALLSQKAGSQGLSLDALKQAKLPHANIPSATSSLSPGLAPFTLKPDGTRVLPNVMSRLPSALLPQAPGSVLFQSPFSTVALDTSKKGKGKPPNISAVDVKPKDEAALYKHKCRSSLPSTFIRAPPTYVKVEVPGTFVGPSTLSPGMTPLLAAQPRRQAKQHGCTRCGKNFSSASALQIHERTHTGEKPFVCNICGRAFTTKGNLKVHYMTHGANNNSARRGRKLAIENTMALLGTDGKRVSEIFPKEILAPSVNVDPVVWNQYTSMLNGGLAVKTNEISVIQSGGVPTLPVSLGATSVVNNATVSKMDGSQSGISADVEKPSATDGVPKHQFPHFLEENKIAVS
Oligonucleotide | E-score
CGCGTCCG | -0.315
AAGACGGA | -0.198
ATGATTTC | 0.371
CGATTGCC | -0.145
ACGCTCAC | -0.119
AGAACGTC | 0.0109
CTGACGGC | -0.256
TAATTCCA | 0.193
GCTTGTAC | 0.0265
GGAGAACC | -0.232
CCACTAAC | 0.0251
CGCTGTTC | -0.177
CACGATGG | -0.168
CCTGGACA | -0.206
TATGTCGA | 0.244
ATCGTAAA | 0.272
GAATACCA | 0.142
TAATCTGA | 0.173
AGTAGCTC | -0.0644
CGGAGTGC | -0.272
ACGCTCAT | 0.0316
CGTCGCCA | -0.102
AAATGAAG | 0.183
AGGCTTAG | -0.0727

Block 4
Target: Histone acetyltransferase KAT6A, winged helix 1, GST fusion (KAT6A, Homo sapiens, UniProt Q92794, residues 1-85)
Technique: protein binding microarray
Molecule type: double-stranded DNA, one strand shown
Sample: in vitro
Concentration: not given
Setting: 8-mer, flanks averaged, mean of 2 arrays, mostly near background
Baseline: not given
Direction: higher = stronger binding
Target sequence (chain): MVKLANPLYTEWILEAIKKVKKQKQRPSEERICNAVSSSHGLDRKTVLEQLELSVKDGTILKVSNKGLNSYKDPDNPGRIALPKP
Oligonucleotide | E-score
CCTGCCGA | -0.00969
ACTTATTG | -0.182
ACAGACAT | -0.0679
CCACAGCC | -0.214
ATGGGGGC | -0.0981
ACAACGCT | 0.00857
ACTTGATG | -0.14
AGTATTCG | -0.0689
AACCCGGG | 0.308
GCCAGATA | -0.174
CCGTGAAA | 0.311
ATCCCTTA | -0.135
AATATTTC | -0.0987
CAGTGCTC | -0.0955
AGTCCTGA | -0.214
CCAAATTA | -0.213
CAAGGAAA | -0.13
TGGACTAA | -0.101
AATCTTCT | -0.0683
GGGCCGCA | 0.363
TGATGACA | -0.195
CAACATCC | 0.0979
AATGAGCC | -0.0406

A few entries again (block 4):
Oligonucleotide | E-score
CCAAATTA | -0.213
ACAGACAT | -0.0679
ATGGGGGC | -0.0981
CCTGCCGA | -0.00969
AACCCGGG | 0.308
GCCAGATA | -0.174
TGATGACA | -0.195
AATATTTC | -0.0987
CAACATCC | 0.0979
CAGTGCTC | -0.0955
ACAACGCT | 0.00857
TGGACTAA | -0.101
